Measurements pooled from the literature.
Protocols differ between the studies behind these lines. Several values in a cell are separate wells, animals, samples, runs or records. ± gives the spread as reported.

| Compound | assay | system | setting | scale | measurement | value |
| --- | --- | --- | --- | --- | --- | --- |
| CC[C@H](C)[C@H](NC(=O)[C@H](CCCCN)NC(=O)CNC(=O)[C@@H](NC(=O)[C@H](Cc1c[nH]cn1)NC(=O)[C@H](Cc1c[nH]cn1)NC(=O)[C@@H](NC(=O)CNC(=O)[C@H](Cc1c[nH]cn1)NC(=O)[C@H](Cc1ccccc1)NC(=O)[C@H](CC(C)C)NC(=O)[C@H](CC(C)C)NC(=O)[C@H](CCCNC(=N)N)NC(=O)[C@H](Cc1ccccc1)NC(=O)[C@@H](N)Cc1ccccc1)C(C)C)C(C)C)C(=O)N[C@@H](CCCCN)C(=O)N1CCC[C@H]1C(=O)N[C@@H](CCCNC(=N)N)C(=O)N[C@@H](C)C(N)=O | – | zebrafish embryos 4 hpf, E3 medium | 1 h | – | acute toxic concentration | 25 µM |
| CC[C@H](C)[C@H](NC(=O)[C@H](CCCCN)NC(=O)CNC(=O)[C@H](CC(C)C)NC(=O)[C@H](Cc1ccccc1)NC(=O)[C@H](CCCCN)NC(=O)[C@H](CO)NC(=O)[C@H](Cc1ccccc1)NC(=O)[C@H](Cc1c[nH]c2ccccc12)NC(=O)[C@H](CCC(N)=O)NC(=O)[C@@H](NC(=O)[C@H](Cc1ccccc1)NC(=O)CCCCCNC(=O)CN1CCN(CC(=O)O)CCN(CC(=O)O)CCN(CC(=O)O)CC1)C(C)C)C(=O)N[C@@H](CCC(=O)O)C(=O)N1CCC[C@H]1C(=O)N[C@@H](CC(=O)O)C(=O)N[C@H](C(=O)N[C@@H](CO)C(=O)N[C@@H](CCC(N)=O)C(=O)N[C@H](C(=O)N[C@@H](CCC(N)=O)C(=O)N[C@@H](CC(=O)O)C(=O)N1CCC[C@H]1C(=O)N[C@@H](CC(N)=O)C(=O)N[C@@H](CC(=O)O)C(=O)N[C@@H](CCC(N)=O)C(=O)N[C@@H](Cc1ccc(O)cc1)C(=O)N[C@@H](CCC(=O)O)C(=O)N1CCC[C@H]1C(=O)N[C@@H](Cc1ccccc1)C(=O)O)C(C)C)C(C)C [copper-64 labelled] | dynamic PET | mouse both sexes, CT26 tumour, untreated, tumour | intravenous, 100 µCi/mouse, 510 s | – | SUVmean | 0.74 SUV |
| CCCCCCCCCCCCCCCC(=O)NCCCC[C@H](NC(=O)[C@H](CCC(=O)O)NC(=O)[C@H](Cc1ccc(O)cc1)NC(=O)[C@H](CCC(=O)O)NC(=O)COCC(=O)NCCCOCCOCCOCCCNC(=O)[C@H](Cc1ccccc1)NC(=O)[C@H](CC(N)=O)NC(=O)[C@H](Cc1c[nH]cn1)NC(=O)[C@@H](NC(=O)[C@H](CC(=O)O)NC(=O)[C@H](CCC(N)=O)NC(=O)[C@H](CC(C)C)NC(=O)[C@H](CCCCN)NC(=O)[C@H](CCCCN)NC(=O)[C@H](CCCNC(=N)N)NC(=O)[C@H](CC(C)C)NC(=O)[C@H](Cc1c[nH]c2ccccc12)NC(=O)[C@H](CCC(=O)O)NC(=O)[C@@H](NC(=O)[C@H](CCCNC(=N)N)NC(=O)[C@H](CCC(=O)O)NC(=O)[C@H](CCSC)NC(=O)[C@H](CO)NC(=O)[C@H](CC(N)=O)NC(=O)[C@H](CC(C)C)NC(=O)[C@H](Cc1c[nH]cn1)NC(=O)[C@H](CCCCN)NC(=O)CNC(=O)[C@H](CC(C)C)NC(=O)[C@H](CC(N)=O)NC(=O)[C@H](Cc1c[nH]cn1)NC(=O)[C@H](CCSC)NC(=O)[C@H](CC(C)C)NC(=O)[C@H](CCC(N)=O)NC(=O)[C@@H](NC(=O)[C@H](CCC(=O)O)NC(=O)[C@H](CO)NC(=O)[C@@H](NC(=O)[C@@H](N)CO)C(C)C)[C@@H](C)CC)C(C)C)C(C)C)C(=O)N[C@@H](CCC(=O)O)C(=O)N[C@@H](Cc1ccc(O)cc1)C(=O)N[C@@H](CCC(=O)O)C(N)=O | ELISA | female CD-1 mice, blood plasma | subcutaneous, 10 nmol/kg, 0.167 h | – | plasma concentration | 8.79 nM |
| CC(CCC(=O)NCC(=O)O)C1CCC2C3C(O)CC4CC(OC5OC(C(=O)O)C(O)C(O)C5O)CCC4(C)C3CCC12C (stereo not shown) | refers to: glucuronide to parent ratio | men, plasma | dose not given | reference: T/C over T/T | ratio of metabolic ratios | 1.88 |
| O=C(N[C@H](Cc1ccc(-c2ccccc2)cc1)C(=O)NCCNc1ccc([N+](=O)[O-])c2nonc12)c1ccc(-c2ccc(OP(=O)(O)O)cc2)cc1 | – | PBS | pH 7.4, before phosphatase treatment | – | critical micelle concentration | 58.8 µM |
| CCCCCCCCCCCCCCCC(=O)N[C@@H](CCC(=O)NCCOCCOCCC(=O)NCCOCCOCCC(=O)NCCCC[C@H](NC(=O)[C@H](CC(=O)O)NC(=O)[C@H](CC(C)C)NC(=O)[C@H](Cc1ccc(O)cc1)NC(=O)[C@H](CCCCN)NC(=O)[C@H](CO)NC(=O)[C@H](Cc1ccc(O)cc1)NC(=O)[C@H](CC(=O)O)NC(=O)[C@H](CO)NC(=O)[C@@H](NC(=O)[C@H](Cc1ccccc1)NC(=O)[C@@H](NC(=O)CNC(=O)[C@H](CCC(N)=O)NC(=O)[C@@H](CO)NC(=O)[C@@H](N)Cc1c[nH]cn1)[C@@H](C)O)[C@@H](C)O)C(=O)N[C@@H](CCCNC(=N)N)C(=O)N[C@@H](CCCNC(=N)N)C(=O)N[C@@H](C)C(=O)N[C@@H](CCC(N)=O)C(=O)N[C@@H](CC(=O)O)C(=O)N[C@@H](Cc1ccccc1)C(=O)N[C@H](C(=O)N[C@@H](CCC(N)=O)C(=O)N[C@@H](Cc1c[nH]c2ccccc12)C(=O)N[C@@H](CC(C)C)C(=O)N[C@@H](CC(C)C)C(=O)N[C@@H](CC(N)=O)C(=O)N[C@H](C(=O)NCC(=O)NCC(=O)N1CCC[C@H]1C(=O)N[C@@H](CO)C(=O)N[C@@H](CO)C(=O)NCC(=O)N[C@@H](C)C(=O)N1CCC[C@H]1C(=O)N1CCC[C@H]1C(=O)N1CCC[C@H]1C(=O)N[C@@H](CO)C(N)=O)[C@@H](C)O)C(C)C)C(=O)O | – | rhesus monkey, plasma | intravenous, 15.3 µg/kg, single dose | – | AUC(0-t) | 289 ng·h/mL |
| COc1ccc(CNc2ccc3c(c2)S(=O)(=O)C=C3)cc1 | – | male C57BL/6 mice, blood | intraperitoneal, 10 mg/kg, day 8, group average | – | mean corpuscular volume | 55 fL |
| CSCC[C@H](NC(=O)CNC(=O)[C@H](CCCCN)NC(=O)[C@H](CC(C)C)NC(=O)[C@@H]1CCCN1C(=O)[C@H](CO)NC(=O)[C@H](Cc1c[nH]cn1)NC(=O)[C@H](Cc1c[nH]c2ccccc12)NC(=O)[C@H](CCCNC(=N)N)NC(=O)[C@H](CC(C)C)NC(=O)[C@H](CCCNC(=N)N)NC(=O)[C@H](Cc1c[nH]c2ccccc12)NC(=O)[C@H](CS)NC(=O)CCCCCNC(=O)CN1CCN(CC(=O)O)CCN(CC(=O)O)CCN(CC(=O)O)CC1)C(=O)O [copper-64 labelled] | PET imaging | C57BL/6J mice bearing B16-F10 tumours, tumour | intravenous, 38 h | – | tissue uptake | 1.75 ± 0.06 %ID/g |
| O=C1NC2(CC2)COc2ncc(F)cc2[C@H]2COCCN2c2ccn3ncc1c3n2 | – | Sprague-Dawley rat, female, spleen | oral, 10 mg/kg/day, 4 weeks, end of treatment | – | organ-to-brain weight ratio | 58.5 ± 12.8% |
| CC(C)[C@@H]1NC(=O)CNC(=O)[C@H](CC(N)=O)NC(=O)[C@H](CCCNC(=N)N)NC(=O)[C@H](Cc2ccc(O)cc2)NC(=O)[C@H](C(C)C)NC(=O)[C@@H](NC(=O)[C@@H](NC(=O)[C@H](CC(N)=O)NC(=O)[C@H](Cc2c[nH]c3ccccc23)NC(=O)[C@H](C)NC(=O)[C@H](Cc2ccccc2)NC(=O)CNC(=O)[C@H](CCCCN)NC(=O)[C@H](Cc2ccccc2)NC(=O)[C@H](Cc2ccccc2)NC(=O)[C@H](CCCCN)NC(=O)OCC2c3ccccc3-c3ccccc32)C(C)C)CSSC[C@@H](C(=O)N[C@@H](Cc2c[nH]cn2)C(=O)N[C@@H](CCCNC(=N)N)C(=O)N[C@@H](CCCNC(=N)N)C(=O)N[C@@H](C)C(=O)N[C@@H](CC(N)=O)C(N)=O)NC(=O)[C@H](C(C)C)NC(=O)[C@H](CCCNC(=N)N)NC1=O | – | ICR mice, blood | intraperitoneal, 5 mg/kg, day 5 | – | mean corpuscular haemoglobin | 13.17 ± 0.13 pg |
| CC[C@H](C)[C@@H]1NC(=O)[C@H](Cc2ccc(O)cc2)NC(=O)CCCSC[C@@H](C(=O)N(CC(=O)N[C@@H](CC(C)C)C(=O)NCC(N)=O)Cc2ccc(F)cc2)NC(=O)[C@H](CC(N)=O)NC(=O)[C@H](CCC(N)=O)NC1=O | – | human | intranasal, 100 µg single dose | – | deaths | 0% |
| CSCC[C@H](NC(=O)[C@@H](NC(=O)[C@H](CC(C)C)NC(=O)[C@@H](NC(=O)[C@H](Cc1c[nH]cn1)NC(=O)CCCCCNC(=O)[C@H](CCCNC(=N)N)NC(=O)[C@H](CCCNC(=N)N)NC(=O)[C@H](CCCNC(=N)N)NC(=O)[C@H](CCC(N)=O)NC(=O)[C@H](CCCNC(=N)N)NC(=O)[C@H](CCCNC(=N)N)NC(=O)[C@H](CCCCN)NC(=O)[C@H](CCCCN)NC(=O)[C@H](CCCNC(=N)N)NC(=O)CNC(=O)[C@@H](N)Cc1ccc(O)cc1)C(C)C)C(C)C)C(=O)N[C@@H](CS)C(=O)N[C@@H](C)C(=O)N[C@H](C(N)=O)[C@@H](C)O | – | C57BL/6J mice | Alzet osmotic pump, 3 mg/kg, 8 weeks | – | serum chloride | 107 mmol/L and 108 mmol/L and 112 mmol/L |
| O=C(c1cc(Cc2n[nH]c(=O)c3ccccc23)ccc1F)N1CC(CNC2CC2)C1 | – | female Wistar Han rat | oral, 60 mg/kg, day 1 | – | Cmax | 14400 ng/mL |
